# Published values pooled from the literature.
# Every numbered part comes from another study and shows a few of its results, in no order. Several values in a cell are separate wells, animals, samples, runs or records.
# Chain of UniProt P49336 (whole entry, looked up): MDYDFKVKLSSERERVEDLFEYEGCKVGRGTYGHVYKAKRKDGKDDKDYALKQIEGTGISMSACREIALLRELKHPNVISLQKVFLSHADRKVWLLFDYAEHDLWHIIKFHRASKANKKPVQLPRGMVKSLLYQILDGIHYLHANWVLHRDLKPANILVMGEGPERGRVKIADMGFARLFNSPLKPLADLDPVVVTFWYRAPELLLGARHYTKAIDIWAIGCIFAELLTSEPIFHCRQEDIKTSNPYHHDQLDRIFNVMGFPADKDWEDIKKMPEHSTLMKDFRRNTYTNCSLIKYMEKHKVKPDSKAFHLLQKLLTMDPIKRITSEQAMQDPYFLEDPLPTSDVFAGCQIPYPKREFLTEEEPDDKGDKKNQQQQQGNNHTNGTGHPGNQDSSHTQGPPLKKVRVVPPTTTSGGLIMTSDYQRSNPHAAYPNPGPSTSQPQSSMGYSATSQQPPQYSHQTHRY

# Sample 1
# Target: cAMP-dependent protein kinase catalytic subunit PRKX (PRKX, Homo sapiens, UniProt P51817)
# Chain of UniProt P51817 (whole entry, looked up): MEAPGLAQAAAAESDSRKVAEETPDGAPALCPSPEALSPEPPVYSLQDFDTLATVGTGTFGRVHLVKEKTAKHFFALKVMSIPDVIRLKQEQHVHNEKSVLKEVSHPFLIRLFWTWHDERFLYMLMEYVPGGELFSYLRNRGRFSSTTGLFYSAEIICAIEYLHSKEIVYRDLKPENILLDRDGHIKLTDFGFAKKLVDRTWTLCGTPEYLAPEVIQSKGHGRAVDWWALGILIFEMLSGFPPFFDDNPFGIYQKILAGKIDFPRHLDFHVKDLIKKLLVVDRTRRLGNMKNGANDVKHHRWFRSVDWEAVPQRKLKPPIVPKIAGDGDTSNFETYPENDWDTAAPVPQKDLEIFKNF
# Read-out: enzyme activity
# Action: inhibitor
# Tested at: 0.5 µM
# Reference: control
SMILES,remaining activity [%]
O=C(NC(NC(=S)Nc1ccc(F)c([N+](=O)[O-])c1)C(Cl)(Cl)Cl)C(c1ccccc1)c1ccccc1 (stereo not shown),106
O=C1C(Cl)=C(N2C(=O)CCC2=O)C(=O)c2ccccc21,103
c1ccc(-c2[nH]ncc2-c2ccnc3ccccc23)nc1,102
Cn1nc2c3c(cccc31)C(=O)c1ccccc1-2,101
Ic1cccc(CSc2nnc(-c3ccncc3)o2)c1,78.2
CCN(CC)CCNC(=O)c1c(C)[nH]c(/C=C2\C(=O)Nc3ccc(F)cc32)c1C,105
O=C1c2ccccc2-c2n[nH]c3cccc1c23,89.5
COc1cc2c(cc1OC)-c1[nH]nc(Nc3cccc(F)c3)c1C2,103
Cc1cn(-c2cc(NC(=O)c3ccc(C)c(Nc4nccc(-c5cccnc5)n4)c3)cc(C(F)(F)F)c2)cn1,109
CN(C)C[C@H]1CCn2c(c(C3=C(c4cn(C)c5ccccc45)C(=O)NC3=O)c3ccccc32)C1,97.8
c1ccc(-c2cnc(Nc3ccc(OCCN4CCCC4)cc3)s2)cc1,101
CN([C@@H](Cc1ccc(OS(=O)(=O)c2cccc3cnccc23)cc1)C(=O)N1CCN(c2ccccc2)CC1)S(=O)(=O)c1cccc2cnccc12,109
N#C/C(=C\c1ccc(O)c(O)c1)C(=O)NCc1ccccc1,99.6
CCOc1nc(NC(=O)Cc2cc(OC)ccc2OC)cc(N)c1C#N,100
CCN(CC)C(=O)c1ccc(Nc2nc(OCC3CCCCC3)c3[nH]cnc3n2)cc1,93.4
Cc1nc2cc3nc(-c4cccs4)cnc3cc2n1C,106
Nc1cccc(-c2cc3c(Oc4cccc(O)c4)ncnc3[nH]2)c1,114
COc1cc2ncnc(Nc3cccc(Cl)c3)c2cc1OC,92.5
Cc1cc2ncc(-c3ccccc3)nc2cc1C,97.9
O=C(Nc1cccc(Nc2nccc(Nc3cccc(C(F)(F)F)c3)n2)c1)C1CC1,94.6
C[C@@H]1CCN(C(=O)CC#N)C[C@@H]1N(C)c1ncnc2[nH]ccc12,110
N#Cc1c(NC(=O)c2cccc3ccccc23)sc2c1CCCC2,103
COc1cc2ncnc(Nc3ccc(O)c(Br)c3)c2cc1OC,89.2
CCN(CC)CCNC(=O)c1c(C)[nH]c(/C=C2\C(=O)Nc3ccc(Cl)cc32)c1C,83.9

# Sample 2
# Cell line: mouse MPNST tumor cells
# Method: high-content nuclear imaging
# Refers to: cell number
# Tested at: 10 µM
# Time: 12 h
# Notes: mean of 2 replicates
# Reference: plate mean
# Direction: higher = more cells
Structure (SMILES),nuclei count
CCCc1cc(C)[nH]c(=O)c1CNC(=O)c1cc(-c2ccc(N3CCN(C(C)C)CC3)nc2)cc2c1cnn2C(C)C,-4.98 z-score
CN1CCC[C@@H]1CCO[C@](C)(c1ccccc1)c1ccc(Cl)cc1,-3.93 z-score and -1.07 z-score
CNCCC=C1c2ccccc2C=Cc2ccccc21,-4.22 z-score
OCCNC1CCCc2c1[nH]c1ccc(-c3ccccc3)cc21 (stereo not shown),-4.9 z-score
CN1CCN(CCCN2c3ccccc3Sc3ccc(C(F)(F)F)cc32)CC1,-7.28 z-score
CCCCc1oc2ccc(NS(C)(=O)=O)cc2c1C(=O)c1ccc(OCCCN(CCCC)CCCC)cc1,-5.07 z-score
CCN(CC)CCNC(=O)COc1ccc(OC)cc1,1.38 z-score
O=C(Nc1cccc2c(=O)cc(-c3nn[nH]n3)oc12)c1ccc(OCCCCc2ccccc2)cc1,0.899 z-score
COc1ccc(-c2cnc3c(-c4cccc5ncccc45)cnn3c2)cc1,-0.208 z-score
Cc1noc(C)c1Cn1cc(C#N)c2cc(Oc3ccc(NC(=O)[C@@H]4CCCN4)cc3)ccc21,1.35 z-score
Cc1nc(Nc2n[nH]c3c2CN(C(=O)N[C@H](CN(C)C)c2ccccc2)C3(C)C)c2sccc2n1,-5.86 z-score
CCOC(=O)C1=C[C@@H](OC(CC)CC)[C@H](NC(C)=O)[C@@H](N)C1,1.55 z-score
Nc1nc(O)c2ncn(CCC(CO)CO)c2n1,0.359 z-score
CC(C)(C)C(=O)OCOC(=O)[C@@H]1N2C(=O)[C@@H](NC(=O)[C@H](N)c3ccccc3)[C@H]2SC1(C)C,0.88 z-score
COc1cccc2c1C(=O)c1c(O)c3c(c(O)c1C2=O)C[C@@](O)(C(C)=O)C[C@@H]3O[C@H]1C[C@H](N)[C@H](O)[C@H](C)O1,-5.25 z-score

# Sample 3
# SMILES: CC(C)n1cnc(-c2ccc(F)cc2)c1-c1ncc(C(=O)Nc2ccc(N3CCN(C)CC3)cc2)[nH]1
# Method: phase 2a trial
# Host: idiopathic pulmonary fibrosis patients
test,setting,adverse event incidence [%]
refers to: chronic gastritis,"30 mg once daily, grade 3",0
refers to: ECG ST segment abnormal,"60 mg once daily, grade 5",0
refers to: QRS axis abnormal,"dose not given, grade 2, all arms pooled",0
refers to: weight decreased,"30 mg once daily, grade 3",0
refers to: arthritis,"60 mg once daily, grade 1",0
refers to: synovitis,"60 mg once daily, grade 2",0
refers to: carotid intima-media thickening,"60 mg once daily, grade 1",0
refers to: arthritis,"30 mg once daily, grade 2",0
refers to: immunoglobulins increased,"30 mg once daily, grade 5",0

# Single results of other studies
SMILES,target or system,test,test system,setting,how to read,quantity,result
C[C@H](c1cccc(C#N)c1)n1cc(Cl)cc(C(N)=O)c1=N,normal organoid sample F,CellTiter-Glo,"human, normal-adjacent epithelium",1 µM,reference: DMSO,viability,143% and 128%
Cn1cncc1[C@](O)(COc1ccc(C#N)cc1-c1ccc(OC(F)(F)F)cc1)c1ccc(C#N)cc1,normal organoid sample F,CellTiter-Glo,"human, normal-adjacent epithelium",1 µM,reference: DMSO,viability,69.4% and 45.2%
CCC(=O)N[C@H]1CC[C@@H](C(=O)N(C)c2ccc(-c3nc4ccccc4o3)cc2)C1,normal organoid sample F,CellTiter-Glo,"human, normal-adjacent epithelium",1 µM,reference: DMSO,viability,12.1% and 11%
O=c1nc(-c2ccccn2)sc2ccccc12,"Cyclin-dependent kinase 8 (CDK8, Homo sapiens, UniProt P49336)","binding, competition with immobilised ligand",,,,Kd,> 10 µM

# Some of these lines once more (sample 1):
SMILES,remaining activity [%]
CCN(CC)CCNC(=O)c1c(C)[nH]c(/C=C2\C(=O)Nc3ccc(Cl)cc32)c1C,83.9
COc1cc2c(cc1OC)-c1[nH]nc(Nc3cccc(F)c3)c1C2,103
Cc1cn(-c2cc(NC(=O)c3ccc(C)c(Nc4nccc(-c5cccnc5)n4)c3)cc(C(F)(F)F)c2)cn1,109
Ic1cccc(CSc2nnc(-c3ccncc3)o2)c1,78.2
CCOc1nc(NC(=O)Cc2cc(OC)ccc2OC)cc(N)c1C#N,100
N#C/C(=C\c1ccc(O)c(O)c1)C(=O)NCc1ccccc1,99.6
